# Measurements pooled from the literature.
# Parts stem from different laboratories: compare values within a part only.
# Sequence of UniProt Q96PY6 (whole entry, looked up): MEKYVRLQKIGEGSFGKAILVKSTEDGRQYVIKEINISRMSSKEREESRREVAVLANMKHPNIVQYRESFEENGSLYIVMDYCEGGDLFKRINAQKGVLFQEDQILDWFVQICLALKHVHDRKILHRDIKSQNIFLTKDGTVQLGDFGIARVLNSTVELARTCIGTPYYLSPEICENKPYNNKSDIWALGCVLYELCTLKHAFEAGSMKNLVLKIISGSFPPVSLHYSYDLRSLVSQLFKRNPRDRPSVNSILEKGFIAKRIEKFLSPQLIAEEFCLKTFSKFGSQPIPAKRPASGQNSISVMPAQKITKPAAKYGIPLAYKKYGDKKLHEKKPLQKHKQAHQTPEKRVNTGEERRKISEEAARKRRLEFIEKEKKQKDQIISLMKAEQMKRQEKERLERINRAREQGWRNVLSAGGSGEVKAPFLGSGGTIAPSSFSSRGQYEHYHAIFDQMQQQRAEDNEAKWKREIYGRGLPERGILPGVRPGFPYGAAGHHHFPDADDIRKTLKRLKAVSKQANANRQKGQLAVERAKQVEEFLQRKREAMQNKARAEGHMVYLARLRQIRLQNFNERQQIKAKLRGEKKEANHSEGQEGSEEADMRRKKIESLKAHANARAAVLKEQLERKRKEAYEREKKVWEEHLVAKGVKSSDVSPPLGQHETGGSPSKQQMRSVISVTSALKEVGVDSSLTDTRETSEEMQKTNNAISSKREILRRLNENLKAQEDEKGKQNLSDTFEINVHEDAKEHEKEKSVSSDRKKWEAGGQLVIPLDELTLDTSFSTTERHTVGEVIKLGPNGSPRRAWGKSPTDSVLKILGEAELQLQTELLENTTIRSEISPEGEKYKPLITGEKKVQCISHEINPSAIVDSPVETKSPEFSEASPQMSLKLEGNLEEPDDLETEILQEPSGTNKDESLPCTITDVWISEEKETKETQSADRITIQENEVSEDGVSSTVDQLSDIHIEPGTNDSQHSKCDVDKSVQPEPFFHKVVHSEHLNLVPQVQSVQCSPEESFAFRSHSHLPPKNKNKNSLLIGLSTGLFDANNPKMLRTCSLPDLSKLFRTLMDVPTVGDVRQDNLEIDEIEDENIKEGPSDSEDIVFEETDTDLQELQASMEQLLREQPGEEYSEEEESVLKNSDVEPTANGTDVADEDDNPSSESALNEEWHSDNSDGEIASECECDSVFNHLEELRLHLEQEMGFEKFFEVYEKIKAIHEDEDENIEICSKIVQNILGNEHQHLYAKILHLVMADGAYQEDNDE
# Sequence of UniProt Q12866 (whole entry, looked up): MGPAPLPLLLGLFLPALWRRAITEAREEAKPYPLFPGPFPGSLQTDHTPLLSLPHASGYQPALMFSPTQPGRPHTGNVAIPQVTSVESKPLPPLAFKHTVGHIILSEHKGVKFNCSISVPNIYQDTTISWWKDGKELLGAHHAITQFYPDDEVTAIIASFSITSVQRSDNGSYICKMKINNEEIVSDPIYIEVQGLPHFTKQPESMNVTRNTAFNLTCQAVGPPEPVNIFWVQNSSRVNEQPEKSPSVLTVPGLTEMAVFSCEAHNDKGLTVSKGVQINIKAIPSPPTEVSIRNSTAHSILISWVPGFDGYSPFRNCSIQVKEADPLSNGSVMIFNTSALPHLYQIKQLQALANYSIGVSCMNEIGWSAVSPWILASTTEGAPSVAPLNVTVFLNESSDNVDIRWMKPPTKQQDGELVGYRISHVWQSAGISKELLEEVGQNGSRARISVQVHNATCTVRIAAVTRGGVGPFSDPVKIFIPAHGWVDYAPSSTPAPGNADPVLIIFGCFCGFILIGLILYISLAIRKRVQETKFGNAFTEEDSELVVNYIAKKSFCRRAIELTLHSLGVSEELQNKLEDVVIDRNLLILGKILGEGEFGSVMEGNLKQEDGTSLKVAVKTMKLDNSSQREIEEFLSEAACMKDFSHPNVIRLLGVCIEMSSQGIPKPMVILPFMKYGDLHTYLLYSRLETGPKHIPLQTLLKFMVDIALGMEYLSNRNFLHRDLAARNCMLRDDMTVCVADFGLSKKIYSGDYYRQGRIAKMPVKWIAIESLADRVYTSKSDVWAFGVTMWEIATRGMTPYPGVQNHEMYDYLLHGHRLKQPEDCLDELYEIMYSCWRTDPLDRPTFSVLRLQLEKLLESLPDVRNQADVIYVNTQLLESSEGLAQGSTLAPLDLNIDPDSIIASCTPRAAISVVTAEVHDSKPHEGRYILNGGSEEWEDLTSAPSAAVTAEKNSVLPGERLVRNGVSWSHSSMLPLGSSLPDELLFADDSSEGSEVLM
# Sequence of UniProt Q04912 (whole entry, looked up): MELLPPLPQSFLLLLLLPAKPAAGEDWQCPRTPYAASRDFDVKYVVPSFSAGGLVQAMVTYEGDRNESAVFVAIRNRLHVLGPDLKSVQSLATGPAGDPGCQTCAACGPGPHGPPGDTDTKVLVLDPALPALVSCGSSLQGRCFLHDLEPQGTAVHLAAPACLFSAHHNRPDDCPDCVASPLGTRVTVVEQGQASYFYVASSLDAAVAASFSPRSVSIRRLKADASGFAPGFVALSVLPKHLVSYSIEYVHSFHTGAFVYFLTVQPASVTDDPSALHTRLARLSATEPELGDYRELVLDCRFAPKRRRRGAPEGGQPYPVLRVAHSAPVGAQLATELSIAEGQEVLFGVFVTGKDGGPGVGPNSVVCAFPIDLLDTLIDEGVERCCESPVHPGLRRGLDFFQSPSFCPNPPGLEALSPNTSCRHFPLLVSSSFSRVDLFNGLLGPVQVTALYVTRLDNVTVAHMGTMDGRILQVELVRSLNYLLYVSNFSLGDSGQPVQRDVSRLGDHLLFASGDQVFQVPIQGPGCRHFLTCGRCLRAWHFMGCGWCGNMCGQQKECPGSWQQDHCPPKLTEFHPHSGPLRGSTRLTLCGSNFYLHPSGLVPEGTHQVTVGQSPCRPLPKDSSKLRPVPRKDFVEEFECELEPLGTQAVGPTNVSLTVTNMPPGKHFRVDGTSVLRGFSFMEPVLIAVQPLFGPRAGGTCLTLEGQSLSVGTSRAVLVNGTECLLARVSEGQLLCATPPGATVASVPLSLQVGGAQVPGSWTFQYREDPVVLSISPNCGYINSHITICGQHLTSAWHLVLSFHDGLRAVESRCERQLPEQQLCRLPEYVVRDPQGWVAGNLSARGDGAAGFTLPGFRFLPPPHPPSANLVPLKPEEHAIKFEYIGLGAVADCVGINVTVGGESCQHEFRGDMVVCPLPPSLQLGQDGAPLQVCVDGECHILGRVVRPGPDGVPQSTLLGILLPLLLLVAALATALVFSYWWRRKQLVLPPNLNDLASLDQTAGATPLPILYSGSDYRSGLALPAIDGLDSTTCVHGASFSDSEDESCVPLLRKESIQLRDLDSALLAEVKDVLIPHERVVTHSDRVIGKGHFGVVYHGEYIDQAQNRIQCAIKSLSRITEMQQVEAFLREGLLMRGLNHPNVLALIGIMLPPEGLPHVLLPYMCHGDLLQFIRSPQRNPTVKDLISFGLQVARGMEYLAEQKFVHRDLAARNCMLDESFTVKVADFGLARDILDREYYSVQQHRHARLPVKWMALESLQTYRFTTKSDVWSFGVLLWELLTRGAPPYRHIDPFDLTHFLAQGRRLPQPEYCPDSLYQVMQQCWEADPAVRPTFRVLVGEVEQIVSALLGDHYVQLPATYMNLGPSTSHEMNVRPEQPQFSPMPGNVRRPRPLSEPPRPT
# Sequence of UniProt P78368 (whole entry, looked up): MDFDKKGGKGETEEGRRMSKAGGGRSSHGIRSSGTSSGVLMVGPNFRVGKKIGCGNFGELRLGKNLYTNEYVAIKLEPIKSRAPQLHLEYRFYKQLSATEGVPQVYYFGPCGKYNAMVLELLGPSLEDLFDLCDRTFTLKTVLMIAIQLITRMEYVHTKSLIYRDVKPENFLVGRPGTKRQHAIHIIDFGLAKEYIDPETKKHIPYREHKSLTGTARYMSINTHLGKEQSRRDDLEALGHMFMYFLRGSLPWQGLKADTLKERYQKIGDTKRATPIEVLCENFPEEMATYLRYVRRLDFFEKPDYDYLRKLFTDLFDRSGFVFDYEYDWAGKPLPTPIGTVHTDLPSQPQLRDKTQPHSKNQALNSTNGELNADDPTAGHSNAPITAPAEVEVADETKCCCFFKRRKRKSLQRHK
# Sequence of UniProt Q6PHR2 (whole entry, looked up): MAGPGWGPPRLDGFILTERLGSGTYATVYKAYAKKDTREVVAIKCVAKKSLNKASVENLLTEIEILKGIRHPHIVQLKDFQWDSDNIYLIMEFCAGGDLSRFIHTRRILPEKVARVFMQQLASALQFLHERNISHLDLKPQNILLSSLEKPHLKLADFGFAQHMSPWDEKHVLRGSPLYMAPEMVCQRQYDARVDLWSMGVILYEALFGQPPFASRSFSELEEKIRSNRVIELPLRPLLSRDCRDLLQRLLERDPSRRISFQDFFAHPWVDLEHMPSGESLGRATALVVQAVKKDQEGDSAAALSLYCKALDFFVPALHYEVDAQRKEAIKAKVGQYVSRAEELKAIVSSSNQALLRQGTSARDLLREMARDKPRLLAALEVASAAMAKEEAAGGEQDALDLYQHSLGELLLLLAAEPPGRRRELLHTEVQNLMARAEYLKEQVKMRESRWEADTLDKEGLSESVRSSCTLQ

# Set 1
# Target: RNA binding protein fox-1 homolog 2, RRM domain, GST-SBP tag (RBFOX2, Homo sapiens, UniProt O43251-10, residues 100-194)
# Method: RNA Bind-n-Seq
# Form: RNA
# Sample: in vitro
# Tested at: 365 nM
# Notes: natural RNA segment, single round, ends assumed
# Baseline: no-protein control
# Direction: higher = stronger binding
# Constant ends, left off below: GGGAGUUCUACAGUCCGACGAUC … UGGAAUUCUCGGGUGCCAA
# Construct (chain): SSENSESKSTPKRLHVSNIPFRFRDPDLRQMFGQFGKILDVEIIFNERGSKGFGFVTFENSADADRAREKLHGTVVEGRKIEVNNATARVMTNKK
Oligonucleotide,RBNS enrichment (R)
AUGUUUUGGGUUCUGUUGCGCUAUUAAUUAAUGUAAAUUUGUUUAUACCCAGGAGAAUAUGUAUACCAUGUGUGUUUGACUAAGUUCACAAGGGAAGUUUUUGGCUCUGC,0.345
CCGACCAUACAAACGAAGAAAUGAAGACGAGAAGGCCUCAUAUUCUAAUACCUCACUCAUUGACACGUGAGCAACACAAAGACAUUCACAAGGGCCGGCAUCACCAGACC,0.724
UCAUUCCAGGUCGGCAUCCUCCGGCAAUGGCAGCUGACCCUAUAUGGCUCUGUGUGGAGUGCAGUAGACAUCAGGGACAGACAAAGGCUGUUAGAGAGUGCCAUGAGUGG,0.445
GGCGUUUUUUUGGAAAGCAUAAAUUGUGACAUCAGUUAUCAUGCUACUUCUUGGUGACAUAAUAUAACCUUUGAAGUUAAUAUGAAGUGAUGUUUGCUCCAUAAACUCCA,0.358
UGUGUUGCUUAAACUUCAAGAAUUACAAAUGUGGACCUGGCACAUGCUGUGGUUUAACAUUGACACUUAAAGCAUGUGGUCACUGGGAAGGAUUGUAAUGUCAGCAGGUG,2.8
CCAGAAAAGUGGCUCUCUUUGGUAGGGAGAGGGGCUCCAAUAUUUCGUUCUCUCCCCAUGGGGCACUGACAGAGAAAUGAAAUAGUUUUAUCUGGAAAAUUCCAGAGCUA,0.495
UUUAUUAAGACAGAAUUUUGUAUAAACUAUUUAUUGUGCUCUCUGUGGAACUGAAGUUUGAUUUAUUUUUGUACUACACGGCAUGGGUUUGUUGACACUUUAAUUUUGCU,2.92
UGUGGGGGAGGUCCCUGCCAGUGUUUAGAAGAGCCUGACUGUGUUCAGUGCCUUGGAGCAGAAAGCCAGGGUCCUGAGUGGCUGAAAUAAAAGCCUCUGGUGGAACCUGC,0.525

# Set 2
# Target: Centromere-binding protein 1, full length, His-tagged (CBF1, Saccharomyces cerevisiae, UniProt P17106, residues 1-351)
# Sequence of UniProt P17106 (whole entry, looked up): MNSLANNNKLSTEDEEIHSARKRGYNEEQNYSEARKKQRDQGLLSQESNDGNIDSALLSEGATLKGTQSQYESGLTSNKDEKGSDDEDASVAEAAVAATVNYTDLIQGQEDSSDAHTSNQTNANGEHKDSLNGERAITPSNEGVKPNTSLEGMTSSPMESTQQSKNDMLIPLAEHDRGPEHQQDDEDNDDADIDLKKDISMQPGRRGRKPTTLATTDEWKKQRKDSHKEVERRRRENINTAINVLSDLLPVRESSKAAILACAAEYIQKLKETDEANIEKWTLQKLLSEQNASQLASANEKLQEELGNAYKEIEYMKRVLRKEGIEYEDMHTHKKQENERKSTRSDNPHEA
# Method: competition protein-binding microarray
# Form: double-stranded DNA, one strand shown
# Sample: in vitro
# Tested at: 2 µM
# Notes: whole 60-bp probe, lowest competitor level
# With: Pho4 competitor, 0.05 µM
# Direction: higher = stronger binding
# Constant ends, left off below: … GTCTTGATTCGCTTGACGCTGCTG
Oligonucleotide,fluorescence intensity [a.u.]
AAATTACTAAGTTTTCACGTGGGGTACCCCGTATGA,690
TTTTACAGCTGCAATCAGGTGAATTCGTTTCTTCGA,114
TTCATCGAATGCTTGCGCATGCCAATGCACAGACAA,69.3
CTTTCCCGATCTTGTCACAAAACTTTAGCACATTTG,72.4
CGGGGTTAAGTTTGTCCAGTGGGTGGCTTGCAGCAG,74.1
CTGTCGGCCCAGTTCCACGTTCATCGCAACTATCAA,72.9
CTCGCGTTAGAGCAGTACGTGGCCGAGCTAAACTCG,69.6
CATACCCAACCTTTTCACGTGCAATAAGATATTTGT,1140

# Set 3
# Structure (SMILES): CCCC(=O)Oc1ccc2[nH]c(C(=O)c3cc4ccccc4[nH]3)cc2c1
# Observed: enzyme activity
# Action: inhibitor
# Tested at: 0.5 µM
# Baseline: control
target,remaining activity
"MERTK (Homo sapiens, UniProt Q12866)",96.7%
"ULK3 (Homo sapiens, UniProt Q6PHR2)",89.5%
"NEK1 (Homo sapiens, UniProt Q96PY6)",94.3%
"CSNK1G2 (Homo sapiens, UniProt P78368)",95.5%
"MAP3K14 (Homo sapiens, UniProt Q99558)",109%
"FGFR3 (Homo sapiens, UniProt P22607)",95.2%
"GSK3B (Homo sapiens, UniProt P49841)",94%
"MAP3K5 (Homo sapiens, UniProt Q99683)",103%
"EPHA3 (Homo sapiens, UniProt P29320)",96.8%
"TEK (Homo sapiens, UniProt Q02763)",100%
"WEE1 (Homo sapiens, UniProt P30291)",85.8%
"MST1R (Homo sapiens, UniProt Q04912)",103%
"ULK2 (Homo sapiens, UniProt Q8IYT8)",98.3%
"FGFR1 (Homo sapiens, UniProt P11362)",96%

# Set 4
# Structure (SMILES): C[C@H](c1ccc(F)cc1)N(Cc1cccc(C(=O)O)c1)C(=O)c1cnc2ccccc2c1
# Observed: cell-free assay
# Method: competition with immobilised ligand
# Tested at: 1 µM
target,remaining binding [%]
"STK39 (Homo sapiens, UniProt Q9UEW8)",82
"ROCK2 (Homo sapiens, UniProt O75116)",100
"Macrophage colony-stimulating factor 1 receptor, autoinhibited (CSF1R, Homo sapiens, UniProt P07333)",65
"INSRR (Homo sapiens, UniProt P14616)",84
"KDR (Homo sapiens, UniProt P35968)",100
"FLT3 (Homo sapiens, UniProt P36888, D835Y)",100
"PIK3C3 (Homo sapiens, UniProt Q8NEB9)",100

# Repeated from above (set 3):
target,remaining activity
"CSNK1G2 (Homo sapiens, UniProt P78368)",95.5%
"MAP3K14 (Homo sapiens, UniProt Q99558)",109%
"FGFR3 (Homo sapiens, UniProt P22607)",95.2%
